Published values collected from several papers.
Lines come from different studies, so protocols differ. ± marks the error that the study gave.

| Compound | test | system | conditions | how to read | quantity | result |
| --- | --- | --- | --- | --- | --- | --- |
| O=C(CN1CCC(O)CC1)Nc1nc(-c2ccccc2)cs1 | paw oedema | mouse | intraperitoneal, 200 µmol/kg |  | inhibition in vivo | 62.6% |
| COc1cc2c(C=C3C(=O)Nc4ccccc43)c[nH]c2cc1C |  | mouse, 12 tumour cell lines in fibres | intraperitoneal, 150 and 100.5 mg/kg daily, 4 days | direction not given | hollow fiber SC score | 6 |
| N[C@@H](CC(=O)O)C(=O)N1CCC[C@H]1C(=O)NCC(=O)NCC(=O)O | diketopiperazine formation, transition state theory | 1-propanol | 70, 80, 90 °C, 0.5% acetic acid |  | ΔS‡ at 298.15 K | -82 ± 1 J/(mol·K) |
| CC1SC(N/N=C2\c3ccccc3-c3nc4cc(F)ccc4nc32)=NC1=O (stereo not drawn) |  | mice with STZ-induced diabetes | oral, 25 mg/kg, 144 h, day 6 |  | blood glucose | 357 ± 29.6 mg/dL |
| CC(C)CCC[C@@H](C)[C@H]1CCC([C@@H]2CC[C@H]3C[C@H](O)CC[C@]3(C)[C@H]2O)[C@]1(C)CC(=O)O (stereo partly drawn) | inhibitor | C57BL/6J male mice, antibiotic-treated, liver | oral gavage, 10 mg/kg, with: taurocholic acid 400 mg/kg |  | Shp mRNA level | inhibited |
| CCC1CC2C(C)=CC3C(=O)CCCC3C=CC(C)=CC2C(=O)O1 (stereo not drawn) | thioflavin S staining, item: amyloid-beta plaques | 5XFAD mouse (male, 8 months), cortex | oral, 30 mg/kg three times per week, one month | baseline: vehicle | plaque number reduction | 12.8% |
| CC(=O)[O-].O.[Cu+2].[O-]c1ccc(Br)cc1C=NCCN1CCOCC1 | DPPH radical scavenging |  | 240 µM |  | inhibition | 74.9% |
| NC(=O)CC[C@H](N)C(=O)N1CCC[C@H]1C(=O)NCC(=O)NCC(=O)O | diketopiperazine formation, transition state theory | 1-propanol | concentration not given, 70, 80, 90 °C, 0.5% acetic acid |  | enthalpy of activation | 19.8 ± 2.63 kcal/mol |
| COc1cc(O)c(Cl)cc1/C=C/C(=O)c1ccc(C(F)(F)F)cc1 | item: TNF-α, IL-6, IL-1β | mouse LPS acute lung injury, BALF | dose not given | baseline: LPS alone | cytokine level | decreased |
| C[C@H](NC(=O)COC(=O)[C@H](C)NC(=O)CO)C(=O)O |  | water | pH 5, 65 °C |  | depolymerization rate constant | 0.843 h⁻¹ |
| Cc1csc(NC(=O)CN2CCC(O)CC2)n1 | Fe3+/ascorbic acid system |  | concentration not given, 30 min, 37 °C, with: DMSO 33 mM |  | hydroxyl radical scavenging | 100% |
| CSc1nn(-c2ccccc2)c(NC(=O)/C(C#N)=C(/Nc2ccc(C)cc2)Nc2c(C)n(C)n(-c3ccccc3)c2=O)c1C#N | real-time PCR, item: COX-2 | mouse, formalin test, paw tissue | dose not given, unit not given | baseline: control | mRNA level | 0.4 ± 0.04 |
| CC[C@H]1[C@@H](O)[C@@H]2[C@H](CC[C@]3(C)[C@@H]([C@H](C)CCOS(=O)(=O)[O-])CC[C@@H]23)[C@@]2(C)CC[C@@H](O)C[C@@H]12.[Na+] |  | ob/ob NASH mouse model | oral, 10 mg/kg once daily, 8 weeks |  | liver weight | 4.1 ± 0.1 g |
| Oc1ccc2nc1CNCCNCCNC2 | pH-potentiometric titration |  | 298 K, I 0.15 M NaCl, with: Mg2+ |  | log beta MHL | 13.2 |
| Cc1ccc(C(=O)Nc2ccc(CP(=O)(O)O)cc2CP(=O)(O)O)cc1NC(=O)c1cccc(NC(=O)Nc2cccc(C(=O)Nc3cc(C(=O)Nc4ccc(CP(=O)(O)O)cc4CP(=O)(O)O)ccc3C)c2)c1 |  | human plasma | 141 µM |  | PT | 13 ± 1.5 s |
| FC(F)(F)c1ccccc1/N=c1\oc2ccccc2cc1-c1ccccc1 |  | rat, formalin paw oedema | intraperitoneal, 20 mg/kg, 4 h |  | oedema reduction | 48.9 ± 2% |
| CCOP(=O)(CC(=O)Nc1ccc(S(=O)(=O)N(CC(N)=O)c2ccc(N(CC(N)=O)S(=O)(=O)c3ccc(OC)cc3)c3ccccc23)cc1)OCC | Morris water maze probe trial | APP/PS1 mice | intragastric, 40 mg/kg, 60 days, lentivirus intracerebroventricular | baseline: untreated APP/PS1 | time in target quadrant | increased |
| Nc1nc2cnc(C(=O)N3CCOC[C@@H]3c3ccc(C(F)(F)F)cc3)cc2c2c1COC2 | immunohistochemistry | human, tumour biopsy | concentration not given, cycle 2 day 1 | direction not given | SDMA H-score | 0 |
| CC(=O)N/C(N)=N/C(=N\S(=O)(=O)c1ccc(C(F)(F)F)cc1)N1C[C@H](c2ccccc2)C(c2ccc(Cl)cc2)=N1 | hyperinsulinaemic euglycaemic clamp | diet-induced obese β-arrestin-2 knockout mice, soleus muscle | 1 mg/kg, obesity-induced impairment |  | 2-deoxyglucose uptake | no effect |
| CC(C)C1=C(OC(=O)C(C)(C)C)C(=O)C2=C(C=C[C@H]3C(C)(C)CCC[C@]23C)C1=O | hydroxyl radical absorbance capacity, fluorometric |  |  |  | HORAC | 0.642 Trolox equivalents |
| O=c1[nH]c(=S)[nH]c2c1C(c1cc(/N=N/c3ccc(Br)cc3)ccc1O)c1c([nH]c(=S)[nH]c1=O)N2 |  | rat, carrageenan paw oedema | oral, 50 mg/kg, 5 h |  | oedema inhibition | 57% |
| COc1ccc2nc3ccc(OC)cc3c(SCCCN)c2c1 |  | MM1.S, J:NU nude mouse xenograft, tumour lysate | 50 mg/kg |  | 26S proteasome activity | decreased |
| C=CC(=O)Nc1ccc(F)c(-c2ncnc3[nH]cc(C(=O)OCC)c23)c1 | qPCR, item: cyclin E1 | CD4 T-cell blasts, mouse | 15 nM, with: IL-2 |  | mRNA level | inhibited |
| O=c1[nH]c2ccccc2n1CCCCCN1CCN(c2ccc(F)cc2)CC1 | writhing decrease | mouse | subcutaneous, with: acetic acid |  | lowest effective dose | 0.1 mg/kg |

| Compound | test | system | conditions | how to read | quantity | result |
| --- | --- | --- | --- | --- | --- | --- |
| CCCN1C(=O)CCc2cc(NS(=O)(=O)Cc3ccc(C)cc3)ccc21 |  | Arabidopsis thaliana Col-0, one month old, detached rosette leaves | 50 µM spray, rapid dehydration | baseline: DMSO | water loss | decreased |
| CCCCCCCOC(=O)Cc1c(C)n(C(=O)c2ccc(Cl)cc2)c2ccc(OC)cc12 | hot plate test | BALB/c mice | 75 mg/kg, 120 min |  | latency of nociceptive response | 16.5 ± 1.14 s |
| C=C(c1ncc(C(=O)O)cn1)c1cc2c(cc1C)C(C)(C)CCC2(C)C | RNA sequencing, item: Dlx2 mRNA | rat, brain | dose not given, 24 h, single dose | baseline: vehicle | log2 fold change | 0.39 |
| CCCCCCCCCCCCCCCC(=O)NCCCC[C@H](N)C(=O)N[C@@H](CC(=O)O)C(=O)N[C@H](C(=O)N[C@@H](Cc1c[nH]cn1)C(=O)N[C@@H](Cc1ccccc1)C(=O)N[C@@H](CCCNC(=N)N)C(=O)N[C@H](C(=O)N[C@@H](Cc1ccccc1)C(=O)N[C@@H](CCCNC(=N)N)C(=O)N[C@@H](CO)C(=O)N[C@@H](Cc1c[nH]cn1)C(=O)N[C@@H](CO)C(=O)N[C@@H](CC(=O)O)C(=O)N[C@@H](Cc1ccc(O)cc1)C(=O)N[C@@H](CCCNC(=N)N)C(=O)N[C@@H](CCCNC(=N)N)C(=O)N[C@H](C(=O)O)[C@@H](C)CC)[C@@H](C)O)[C@@H](C)O |  | C57BL/6J mouse, MCD diet | intraperitoneal, 1.2 nmol/g, 3 weeks, 3 times weekly |  | final body weight | 21.6 ± 0.9 g |
| CC=CC(CC(=O)O)c1ccc(OCc2ccc(-c3cc(OC)ccc3F)cc2)cc1 (stereo not drawn) | item: total GLP-1 | colonic crypt cultures, wild type, mouse, ex vivo | 1 µM, 2 h | baseline: vehicle | GLP-1 release | 1.4 ± 0.19 fold change |
| COc1cc(CN2CCN(c3ccc(F)cc3)CC2)c2cc3[n+](cc2c1O)CCc1cc2c(cc1-3)OCO2 | ferric reducing power, FRAP |  | 10 µg/mL, 30 min | higher is greater reducing power | FRAP absorbance | 0.002 ± 1.05 a.u. |
| CCCCCCCCCCCCCCCC(=O)OCC(CSC[C@H](N)C(=O)N[C@@H](CO)C(=O)N[C@@H](CCCCN)C(=O)N[C@@H](CCCCN)C(=O)N[C@@H](CCCCN)C(=O)N[C@@H](CCCCN)C(=O)NCCCCCC(=O)N[C@@H](CCCCN)C(=O)N[C@@H](CC(C)C)C(=O)N[C@H](C(=O)N[C@@H](Cc1ccccc1)C(=O)N[C@@H](Cc1ccccc1)C(=O)N[C@@H](Cc1ccc2ccccc2c1)C(=O)O)C(C)C)OC(=O)CCCCCCCCCCCCCCC (stereo partly drawn) | item: thioflavin S plaques | APP/PS1 mouse, 9 months | intrahippocampal, 100 µM, 300 nL, 5 d | baseline: injected over adjacent side | plaque load ratio | 0.13 ± 0.2 |
| COc1ccc(C2CC(c3ccc(C)cc3)=Nc3ccccc3S2)cc1OC (stereo not drawn) |  | Wistar rat, STZ-induced diabetes, serum | 10 mg/kg, 28 days |  | HDL cholesterol | 48 mg/dL |
| NCC(=O)N1CCC[C@H]1C(=O)NCC(=O)NCC(=O)O | diketopiperazine formation, transition state theory | 1-propanol | 70, 80, 90 °C, 0.5% acetic acid |  | ΔS‡ at 298.15 K | -70 ± 9 J/(mol·K) |
| O=c1[nH]c(N2CCC3(CC2)CN(CCO)c2cc(F)cc(F)c23)nc2c1CCCC2 |  | NOD-SCID mouse, xenograft, tumour nuclear extract | oral or intraperitoneal, dose not given, 4 h after last dose |  | active β-catenin level | decreased |
| CCCCOc1nc(N)c2[nH]c(=O)n(CCCN(CCCN3CCOCC3)Cc3cccc(CC(=O)OC)c3)c2n1 |  | rat, Brown Norway, ovalbumin-sensitised | intratracheal, 1 mg/kg once weekly, eight doses, challenge 26 days after last dose |  | BAL IL-13 | inhibited |
| CCCCCCOC(=O)Cc1c(C)n(C(=O)c2ccc(Cl)cc2)c2ccc(OC)cc12 | hot plate test | BALB/c mice | 75 mg/kg, 0 min |  | latency of nociceptive response | 9.58 ± 0.46 s |
| CC(=O)N[C@H](CSSC[C@H](N)C(=O)O)C(=O)N[C@H](C)C(=O)N[C@H](CCCNC(=N)N)C(=O)N[C@H](CCCNC(=N)N)C(=O)N[C@H](CCCNC(=N)N)C(=O)N[C@H](C)C(=O)N[C@H](CCCNC(=N)N)C(N)=O |  | healthy male human | intravenous, 0.5 mg single |  | plasma ionized calcium change | no effect |
| CC[C@H](C)[C@H](N)C(=O)N1CCC[C@H]1C(=O)NCC(=O)NCC(=O)O | diketopiperazine formation, transition state theory | 1-propanol | concentration not given, 70, 80, 90 °C, 0.5% acetic acid |  | enthalpy of activation | 17.9 ± 1.43 kcal/mol |
| C=C(c1cc(F)c(C(=O)O)c(F)c1)c1cc2c(cc1C)C(C)(C)CCC2(C)C | RNA sequencing, item: Pdk4 | rat, brain | dose not given, 24 h | baseline: vehicle | log2 fold change | 0.87 |
| COc1cc(CN2CCN(c3ccccc3Cl)CC2)c2cc3[n+](cc2c1O)CCc1cc2c(cc1-3)OCO2 | ferric reducing power, FRAP |  | 10 µg/mL, 30 min | higher is greater reducing power | FRAP absorbance | 1.91 ± 0.57 a.u. |
| N[C@@H](Cc1ccccc1)C(=O)N1CCC[C@H]1C(=O)NCC(=O)NCC(=O)O | diketopiperazine formation, transition state theory | 1-propanol | 70, 80, 90 °C, 0.5% acetic acid |  | ΔS‡ at 298.15 K | -36 ± 3 J/(mol·K) |
| COc1c2c(cc3oc(CO)cc(=O)c13)O[C@H](C(C)(C)O)C2 | analgesic effect | Kunming mouse, female | oral, 2 mg/kg, 0 h, 55 °C, before dosing, 30 s cut-off |  | hot plate latency | 8.17 ± 1.18 s |
| CCCCCCCCCCCCCCc1sc(NC(=O)CCN2CCC(O)CC2)nc1-c1ccccc1 | paw oedema | mouse | intraperitoneal, 200 µmol/kg |  | inhibition in vivo | 32.2% |
| N[C@@H](Cc1c[nH]c2ccccc12)C(=O)N1CCC[C@H]1C(=O)NCC(=O)NCC(=O)O | diketopiperazine formation, transition state theory | 1-propanol | concentration not given, 70, 80, 90 °C, 0.5% acetic acid |  | enthalpy of activation | 23.9 ± 1.67 kcal/mol |
| Cn1c(=O)c(=O)n(C)c2cc(S(=O)(=O)Nc3ccc(S(=O)(=O)Nc4ncccn4)cc3)ccc21 | IPGTT | HFD/STZ diabetic male albino mice | 10 mg/kg, 6 h |  | blood glucose | 90.3 ± 3.25 mg/dL |
| Cc1nc(C)c(C=[N+]([O-])C(C)(C)C)nc1C | Western blot, item: PGC-1α | mouse, MPTP model, substantia nigra nuclei | 90 mg/kg |  | protein level increase | 50.6% |
| O=C1CCN(Cc2ccccc2)CC1C(C[N+](=O)[O-])c1ccccc1 (stereo not drawn) | tail immersion test | BALB/c mice | ip, 50 mg/kg, 1.5 h |  | tail flick response | 58.7% |
| FC(F)(F)Oc1ccc(/N=c2\oc3ccccc3cc2-c2ccccc2)cc1 |  | rat, formalin paw oedema | intraperitoneal, 10 mg/kg, 4 h |  | oedema reduction | 45.8 ± 3.2% |

Some of these lines once more:
| Compound | test | system | conditions | how to read | quantity | result |
| --- | --- | --- | --- | --- | --- | --- |
| C=CC(=O)Nc1ccc(F)c(-c2ncnc3[nH]cc(C(=O)OCC)c23)c1 | qPCR, item: cyclin E1 | CD4 T-cell blasts, mouse | 15 nM, with: IL-2 |  | mRNA level | inhibited |
| O=c1[nH]c2ccccc2n1CCCCCN1CCN(c2ccc(F)cc2)CC1 | writhing decrease | mouse | subcutaneous, with: acetic acid |  | lowest effective dose | 0.1 mg/kg |
| CCCN1C(=O)CCc2cc(NS(=O)(=O)Cc3ccc(C)cc3)ccc21 |  | Arabidopsis thaliana Col-0, one month old, detached rosette leaves | 50 µM spray, rapid dehydration | baseline: DMSO | water loss | decreased |
